Published values of several laboratories.
“And” joins repeats or separate records; there may be more than shown. Numbers after ± are the reported error.

COC(=O)c1ccc2c(c1)NC(=O)/C2=C(\Nc1ccc(N(C)C(=O)CN2CCN(C)CC2)cc1)c1ccccc1 — renal clearance (0-72 h) (human, hepatic impairment Child-Pugh A, urine and plasma; oral, 100 mg single dose, geometric mean): 19.4 mL/min
O=C1N=C(N2CCOCC2)CN1c1ccc(Cl)cc1 — terminal half-life (beagle dog, both sexes, plasma; oral, 30 mg/kg, tablets, fasted): 1.5 h
CNC(=O)c1ccc(-c2cnc3ncc(Cc4ccc5ncccc5c4)n3n2)cc1F — Cmax (mean) (human, moderate hepatic impairment (Child-Pugh B), plasma; oral, 200 mg single dose): 1560 ng/mL
CN(C)C/C=C/C(=O)Nc1cc2c(Nc3ccc(F)c(Cl)c3)ncnc2cc1O[C@H]1CCOC1 — half-life at steady state (human, plasma; oral, 10 mg once daily, day 27, geometric mean): 47 h
Cn1cc(C[C@H](N)C(=O)O)c2ccccc21 — body weight (domestic pig; sc, 1 g daily for five days): 14.1 ± 1.1 kg
CCN1CCN(Cc2ccc(Nc3ncc(F)c(-c4cc(F)c5nc(C)n(C(C)C)c5c4)n3)nc2)CC1 — tmax (human, plasma; oral, 200 mg, single dose): ~6 h
CC1(C)Oc2cc3oc(=O)ccc3cc2C[C@@H]1O — plasma ALT activity (male CD-1 mouse, plasma; oral gavage, 80 mg/kg daily, 4 weeks): 33.3 ± 21.2 U/L
COc1cc(/C=C/C(=O)CC(=O)/C=C/c2ccc(O)c(OC)c2)ccc1O — brain uptake ratio (I-125 label; C57BL/6J mouse, olfactory lobes; intranasal vs intraperitoneal, 10 µg/mouse IN, 100 µg/mouse IP, 12 h; baseline: intranasal over intraperitoneal): 3.15
CC(=O)c1cc(C(=O)N[C@@H](C)Cn2ccc(-c3ccc(C#N)c(Cl)c3)n2)[nH]n1 — effective half-life (human; oral, 600 mg twice daily, with food): 14.1 h
Cc1cc(Nc2ncc(Cl)c(Nc3ccccc3S(=O)(=O)C(C)C)n2)c(OC(C)C)cc1C1CCNCC1 — Kp (human, brain tumour patients, enhancing tumour over plasma; oral, 450 mg/day, 6 to 8 h after dose 10, total drug): 34.7 and 64.2 and 22.9
COc1cccc(N2CCN(C3=Nc4c(F)cccc4[C@H](CC(=O)O)N3c3cc(C(F)(F)F)ccc3OC)CC2)c1 — volume of distribution (UHPLC-MS/MS; healthy women, plasma; intravenous infusion, 720 mg single dose, 60 min infusion, HPβCD formulation): 74.1 ± 32 L
COC(=O)c1ccc2c(c1)NC(=O)/C2=C(\Nc1ccc(N(C)C(=O)CN2CCN(C)CC2)cc1)c1ccccc1 — AUC(tau) steady state (human mild liver impairment, plasma; oral, 200 mg twice daily, geometric mean): 912 ng·h/mL
O=C(CCCCCCC(=O)Nc1ccccc1)NO — AUC(0-7 h) (patients, serum; oral, 400 mg, cycle 1, added: flavopiridol): 8.32 µM·h
CC[C@@H]1CN(C(=O)NCC(F)(F)F)C[C@@H]1c1cnc2cnc3[nH]ccc3n12 — renal clearance (human, normal renal function, urine and plasma; oral, 15 mg single dose, extended release, fasted, arithmetic mean): 93.3 mL/min
CNCc1ccc(-c2[nH]c3cc(F)cc4c3c2CCNC4=O)cc1 — Cmax (human patients, plasma; oral, 600 mg twice daily, day 1, arithmetic mean): 1030 ng/mL
Cc1nc(Nc2ncc(C(=O)Nc3c(C)cccc3Cl)s2)cc(N2CCN(CCO)CC2)n1 — concentration (C57BL/6 mouse, male, urinary bladder; oral, 10 mg/kg, 5 min, undetectable): < 10 ng/mL
CCCC[C@H](NC(C)=O)C(=O)N[C@H]1CCC(=O)NC[C@@H](C(=O)N[C@@H](Cc2c[nH]c3ccccc23)C(N)=O)NC(=O)[C@H](CCCNC(=N)N)NC(=O)[C@@H](Cc2ccccc2)NC(=O)[C@H](Cc2c[nH]cn2)NC1=O — CL/F (CD Sprague Dawley rat, female, plasma; subcutaneous, 1.0 mg/kg daily, day 1): 18.4 mL/min/kg
O=C(c1cccnc1-c1ccncc1)N1CCC(O)(Cc2ccccc2)CC1 — renal clearance (healthy human, urine; oral, 300 mg once daily, day 1, arithmetic mean): 5 mL/min
CC(=O)N[C@@H](Cc1ccccc1)C(=O)N[C@H]1CCCNC(=O)[C@H](CCCNC(=N)N)NC(=O)[C@H](Cc2c[nH]c3ccccc23)NC(=O)[C@@H](CC2CCCCC2)NC(=O)[C@@H]2CCCN2C1=O — absorption half-life (C57BL/6J mice, spinal cord; subcutaneous, 1 mg/kg): 0.257 h
C[C@]12CC[C@@H]3c4ccc(O)cc4CC[C@H]3[C@@H]1C[C@@H](O)[C@@H]2O — minimum serum concentration (GC-MS; breast cancer women on NSAI, serum; vaginal, 0.03 mg, 0.5 h, day 0): 0 ng/mL
C[C@H]1CNCCCN1S(=O)(=O)c1cccc2cncc(F)c12 — AUC(0-τ) (human, male, plasma; ocular instillation, 1 drop per eye twice daily, day 8, geometric mean, added: brimonidine fixed-dose combination): 0.106 ng·h/mL
CS(=O)(=O)n1cc2c(n1)CN([C@H]1CO[C@H](c3cc(F)ccc3F)[C@@H](N)C1)C2 — plasma concentration (healthy Japanese men, fasted, plasma; oral, 5 mg single dose, 168 h): 7.55 nM
TWPKHFDKHTFYSILKLGKH-OH (C-acid) — plasma stability time (peptide, mouse plasma; 37 °C): ≥ 20 min
CC(C)=CCC[C@](C)(O[C@@H]1O[C@H](CO)[C@@H](O)[C@H](O)[C@H]1O)[C@H]1CC[C@]2(C)[C@@H]1[C@H](O)C[C@@H]1[C@@]3(C)CC[C@H](O)C(C)(C)[C@@H]3[C@@H](O[C@@H]3O[C@H](CO)[C@@H](O)[C@H](O)[C@H]3O)C[C@]12C — CL/F (Sprague Dawley rat, male, plasma; oral, 25 mg/kg, in white ginseng extract): 537 ± 96.7 mL/min/kg
CC[C@H](C)[C@@H]1NC(=O)[C@H](Cc2ccc(O)cc2)NC(=O)[C@@H](N)CSSC[C@@H](C(=O)N2CCC[C@H]2C(=O)N[C@@H](CC(C)C)C(=O)NCC(N)=O)NC(=O)[C@H](CC(N)=O)NC(=O)[C@H](CCC(N)=O)NC1=O — AUC(0-t) (microdialysis, radioimmunoassay; knock-out male mice lacking compound, amygdala extracellular fluid; intranasal, 12 µg, total area from zero): 266 ± 113 pg·30 min/sample
CCn1nc(C2CC2)cc1Nc1nc(C(=O)NCCCCCc2cccc3c2CN(C2CCC(=O)NC2=O)C3=O)nc2[nH]c3cc(-c4c(C)noc4C)c(OC)cc3c12 (stereo not drawn) — concentration in tumour (female SCID C.B-17 mouse, RS4;11 xenograft, tumour; intravenous, 5 mg/kg single, 6 h): 39.4 ng/g
CCCC[C@@H]1NC(=O)[C@@H](NC(=O)[C@H](CCC(=O)O)NC(=O)CNC(=O)CN2CCN(CC(=O)O)CCN(CC(=O)O)CCN(CC(=O)O)CC2)CCCCNC(=O)C[C@@H](C(N)=O)NC(=O)[C@H](C(C)C)NC(=O)[C@@H]2CCCN2C(=O)[C@H](CCCNC(=N)N)NC(=O)CNC(=O)[C@H](Cc2c[nH]c3ccccc23)NC(=O)[C@H](CCCNC(=N)N)NC(=O)[C@@H](Cc2ccccc2)NC(=O)[C@H](Cc2c[nH]cn2)NC(=O)[C@H](CCC(=O)O)NC1=O [indium-111 labelled] — tissue uptake (C57 mice, B16/F10 lung metastatic melanoma, brain; intravenous, 0.037 MBq, 2 h): 0.01 ± 0.01 %ID/g
C[C@@H]1CCC[C@H](n2cnc(-c3cc(Cl)ccc3-n3cc(Cl)nn3)cc2=O)c2cc(ccn2)-c2c(cnn2C(F)F)NC1=O — AUC(0-inf) (human, plasma; oral, 200 mg, single dose, fasted, healthy volunteers): 13800 ng·h/mL
O=C(Cc1cccc(OC(F)(F)F)c1)Nc1ccc(CCCCc2nnc(NC(=O)Cc3ccccn3)s2)nn1 — Cmin (human; oral, 1000 mg twice daily, fed, steady state, cycle 1 day 15, median): 147 ng/mL
des-acyl ghrelin (human) — brain/serum ratio (mouse, wild type, striatum; intravenous, 10 min): 5.67 µL/g
CCCOc1ccc([C@H]2CNC(=O)N2c2ccc3[nH]cnc3c2)cc1 — effective half-life (human, elderly, fasted, plasma; oral, 500 mg twice daily, tablet, day 11, 2 to 12 h postdose, geometric mean): 2.78 h
Cc1cc(Nc2cc3ncccc3c(N[C@@H]3C[C@H]4CC[C@@H](C3)N4CCC#N)n2)n[nH]1 — Cmax (beagle dog, male, plasma; oral, 30 mg/kg/day, last day of 4 weeks): 93.4 ng/mL
Cc1ccc(Nc2nccc(N(C)c3ccc4c(C)n(C)nc4c3)n2)cc1S(N)(=O)=O — steady-state concentration (HPLC-MS/MS; patients, plasma total drug; oral, 800 mg daily): 30.9 ± 11.2 µg/mL
Nc1cc(F)ccc1NC(=O)c1ccc(CNC(=O)/C=C/c2cccnc2)cc1 — renal clearance (Japanese patients, urine; oral, 40 mg, cycle 1 day 1, arithmetic mean): 29.2 mL/min
CC(=O)N1CCC[C@H]1C(=O)N[C@@H](CCCNC(=N)N)C(=O)N[C@H](C(=O)N[C@@H](CCCNC(=N)N)C(=O)N[C@H](C(=O)N[C@@H](CCCNC(=N)N)C(=O)N[C@H](C(=O)N[C@@H](CC(=O)O)C(=O)N1CCC[C@H]1C(=O)N[C@@H](CCCNC(=N)N)C(=O)N[C@H](C(=O)N[C@@H](CC(=O)O)C(=O)N[C@H](C(=O)N[C@@H](CCCNC(=N)N)C(=O)N[C@H](C(=O)N[C@@H](CC(=O)O)C(=O)N1CCC[C@H]1C(N)=O)C(C)C)C(C)C)C(C)C)C(C)C)C(C)C)C(C)C — viscosity (rotational rheometry; 1% w/v aqueous solution; shear rate range 1-1000 s^-1): 1250 ± 31.2 Pa·s
Cn1c(-c2ccc(C(N)=O)cc2F)nnc1C(C)(C)Oc1c(F)cc(Cl)cc1F — half-life median (young Japanese adults, plasma; oral, 10 mg single dose, day 1, high-dose multiple-dose study): 17.7 h
O=C(O)[C@H](c1ccccc1Cl)N1CCc2sccc2C1 — deviation from nominal (HPLC-MS/MS; feline EDTA plasma; 6 h, -20 °C, storage stability): -6%
CNC(=O)c1cc(Oc2ccc(NC(=O)Nc3ccc(Cl)c(C(F)(F)F)c3)c(F)c2)ccn1 — terminal t1/2 (healthy male human, plasma; ocular, after last of multiple doses): 60 to 67 h
OC[C@H]1O[C@@H](c2ccc(Cl)c(Cc3ccc(O[C@H]4CCOC4)cc3)c2)[C@H](O)[C@@H](O)[C@@H]1O — plasma concentration (HPLC-MS/MS; healthy Chinese volunteers, fasting; oral, 10 mg tablet, 1.25 h): 168 ± 44.1 ng/mL
CC1=C2C[C@H]3[C@@H](CC[C@@H]4C[C@H](NS(C)(=O)=O)CC[C@@]43C)[C@@H]2CC[C@@]2(C1)O[C@@H]1C[C@H](C)CN[C@H]1[C@H]2C — AUC(0-24) (patients, plasma; oral, 90 mg single, day -7, cycle 1): 263 ng·h/mL
C=CC(N)CCC(=O)O (stereo not drawn) — clearance (male Sprague-Dawley rat, plasma; oral, 1.0 mg/kg, formulation 2, added: infant formula 1500 mg/kg): 9.57 ± 0.317 mL/min/kg
CC(C)C[C@H](NC(=O)[C@H](CCc1ccccc1)NC(=O)CN1CCOCC1)C(=O)N[C@@H](Cc1ccccc1)C(=O)N[C@@H](CC(C)C)C(=O)[C@@]1(C)CO1 — steady-state volume of distribution (human patients, plasma; intravenous infusion 10 min, 27 mg/m^2, day 16 of cycle 1, KRd regimen): 11.7 ± 5.4 L
CNC(=O)c1cc(Oc2ccc(NC(=O)Nc3ccc(Cl)c(C(F)(F)F)c3)cc2)ccn1 — half-life (nude mouse, MHCC97H tumour xenograft, subcutaneous tumour; intratumoral, PXR siRNA): 42.1 ± 2.79 h
O=C(CCCCCCC(=O)Nc1ccc([18F])cc1)NO — remaining in blood (C57BL/6 mouse, whole blood; intravenous, 243 µCi, after initial phase, DMA-Solutol-PBS vehicle; baseline: dose): ~6%
CC(C)NC[C@@H](C(=O)N1CCN(c2ncnc3c2[C@H](C)C[C@H]3O)CC1)c1ccc(Cl)cc1 — t1/2 (human, Severe hepatic function (Child-Pugh), plasma; oral, 100 mg single dose, arithmetic mean): 75.4 h
liraglutide — plasma protein binding (equilibrium dialysis; human plasma, diluted; 10 nM): no effect
Cc1nc2cccc(OCC(C)(C)C(=O)NC(C)C)c2c(N)c1C(=O)O — Cmax (female Sprague-Dawley rat, plasma; oral gavage, 100 mg/kg, day 7): 190 ± 79.5 ng/mL
CNC(=O)c1cccc(-c2ccc(O[C@H]3O[C@H](CO)[C@@H](O)[C@H](O)[C@@H]3O)c(C)c2)c1 — effective oral dose (mouse, urine; oral, urine level above biofilm IC50): 50 mg/kg

Excerpt of the above:
CC[C@H](C)[C@@H]1NC(=O)[C@H](Cc2ccc(O)cc2)NC(=O)[C@@H](N)CSSC[C@@H](C(=O)N2CCC[C@H]2C(=O)N[C@@H](CC(C)C)C(=O)NCC(N)=O)NC(=O)[C@H](CC(N)=O)NC(=O)[C@H](CCC(N)=O)NC1=O — AUC(0-t) (microdialysis, radioimmunoassay; knock-out male mice lacking compound, amygdala extracellular fluid; intranasal, 12 µg, total area from zero): 266 ± 113 pg·30 min/sample
CCn1nc(C2CC2)cc1Nc1nc(C(=O)NCCCCCc2cccc3c2CN(C2CCC(=O)NC2=O)C3=O)nc2[nH]c3cc(-c4c(C)noc4C)c(OC)cc3c12 (stereo not drawn) — concentration in tumour (female SCID C.B-17 mouse, RS4;11 xenograft, tumour; intravenous, 5 mg/kg single, 6 h): 39.4 ng/g
CCCC[C@@H]1NC(=O)[C@@H](NC(=O)[C@H](CCC(=O)O)NC(=O)CNC(=O)CN2CCN(CC(=O)O)CCN(CC(=O)O)CCN(CC(=O)O)CC2)CCCCNC(=O)C[C@@H](C(N)=O)NC(=O)[C@H](C(C)C)NC(=O)[C@@H]2CCCN2C(=O)[C@H](CCCNC(=N)N)NC(=O)CNC(=O)[C@H](Cc2c[nH]c3ccccc23)NC(=O)[C@H](CCCNC(=N)N)NC(=O)[C@@H](Cc2ccccc2)NC(=O)[C@H](Cc2c[nH]cn2)NC(=O)[C@H](CCC(=O)O)NC1=O [indium-111 labelled] — tissue uptake (C57 mice, B16/F10 lung metastatic melanoma, brain; intravenous, 0.037 MBq, 2 h): 0.01 ± 0.01 %ID/g
C[C@@H]1CCC[C@H](n2cnc(-c3cc(Cl)ccc3-n3cc(Cl)nn3)cc2=O)c2cc(ccn2)-c2c(cnn2C(F)F)NC1=O — AUC(0-inf) (human, plasma; oral, 200 mg, single dose, fasted, healthy volunteers): 13800 ng·h/mL
O=C(Cc1cccc(OC(F)(F)F)c1)Nc1ccc(CCCCc2nnc(NC(=O)Cc3ccccn3)s2)nn1 — Cmin (human; oral, 1000 mg twice daily, fed, steady state, cycle 1 day 15, median): 147 ng/mL
des-acyl ghrelin (human) — brain/serum ratio (mouse, wild type, striatum; intravenous, 10 min): 5.67 µL/g
CCCOc1ccc([C@H]2CNC(=O)N2c2ccc3[nH]cnc3c2)cc1 — effective half-life (human, elderly, fasted, plasma; oral, 500 mg twice daily, tablet, day 11, 2 to 12 h postdose, geometric mean): 2.78 h
